Measurements pooled from the literature.
Each numbered part is a random draw from the data of one study; scales do not carry over between parts.

Set 1
Target: Interferon regulatory factor 7, full length, phosphomimetic (IRF7, Homo sapiens, UniProt Q92985, residues 1-503, S101K/S471D/S472D/S475D/S476D/S477D/S483D/S484D/S487D)
Sequence of UniProt Q92985 (whole entry, unmodified, looked up): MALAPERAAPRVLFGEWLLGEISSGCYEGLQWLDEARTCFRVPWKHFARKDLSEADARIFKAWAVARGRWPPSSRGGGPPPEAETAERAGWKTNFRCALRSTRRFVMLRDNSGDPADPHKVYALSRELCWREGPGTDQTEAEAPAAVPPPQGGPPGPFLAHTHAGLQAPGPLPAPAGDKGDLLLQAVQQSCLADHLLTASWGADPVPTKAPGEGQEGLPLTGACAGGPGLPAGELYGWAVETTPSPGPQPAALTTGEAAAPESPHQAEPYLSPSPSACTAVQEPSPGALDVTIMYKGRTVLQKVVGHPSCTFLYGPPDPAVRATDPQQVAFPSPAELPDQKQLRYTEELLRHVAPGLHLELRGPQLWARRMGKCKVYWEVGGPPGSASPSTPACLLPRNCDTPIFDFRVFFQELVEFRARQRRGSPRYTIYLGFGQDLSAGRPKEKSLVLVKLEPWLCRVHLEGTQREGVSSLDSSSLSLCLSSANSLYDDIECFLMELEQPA
Method: protein-binding microarray
Molecule type: double-stranded DNA, one strand shown
Medium: in vitro
Concentration: 250 nM
Setting: 60-bp whole probe
With: salmon DNA 0.4 mg/ml
Relative to: random background probes
Direction: higher = stronger binding
Shared flanks, not repeated: GCCTAGCAC … GTCTTGATTCGCTTGACGCTGCTG
The log fluorescence of `TTAGATCGCAGTCTCGATTAGTGCTAG` is reported as 1.14 z-score.
With `TTAGGACTGCTTCTTCTTTAGTGCTAG` the log fluorescence was 0.506 z-score.
`GCCGGTCTCCTTCTCCTGACGTGCTAG` has a log fluorescence of 0.378 z-score.
The log fluorescence of `GACGGACTGGGTACCGGGACGTGCTAG` is reported as -0.303 z-score.
For `GACGATCTCCGTATCGAGACGTGCTAG`, the log fluorescence was -0.034 z-score.
`TTAGGTCTCGGGCTGGGTTAGTGCTAG` has a log fluorescence of -0.0168 z-score.
With `GACGGACTGGGTCTCGGGACGTGCTAG` the log fluorescence was -0.329 z-score.
With `AAATTTTGATGAACTTAAGCGTGCTAG` the log fluorescence was -0.416 z-score.
With `TCCTTTATGTACTCTCTACATGTGCTA` the log fluorescence was 0.896 z-score.
With `TTAGGACTGGGTTTTGGTTAGTGCTAG` the log fluorescence was 0.864 z-score.
`AATACCTTCGAGTCTGCAACAGTGCTA` has a log fluorescence of 0.0775 z-score.
For `TCAATCTTCATTGTCATACTGTGCTAG`, the log fluorescence was 0.203 z-score.
`TTCTACTTCTCTTTTGGCTTGTGCTAG` gave a log fluorescence of 0.88 z-score.
The log fluorescence of `GACTGACTGGACACTGGGGACGTGCTA` is reported as -0.207 z-score.
For `TTAGGTATCGGACCGGGTTAGTGCTAG`, the log fluorescence was 0.41 z-score.
For `GACGGTATCCTACTGCTGAAGTGCTAG`, the log fluorescence was -0.394 z-score.
`GACGGTATCGGACTGGGAACGTGCTAG` gave a log fluorescence of -0.211 z-score.
`TTAGGTATCGGGTTTCTGTTAGTGCTA` gave a log fluorescence of 3.46 z-score.
With `GACGGATTCGGGACTGGGGACGTGCTA` the log fluorescence was 0.297 z-score.
`TCCTCTTTCACTGGTCCTCATGTGCTA` has a log fluorescence of 1.65 z-score.
The log fluorescence of `GAAGGTTTCCTTTTCCTGACGTGCTAG` is reported as 6.73 z-score.

Set 2
Target: CDC34 UBC core domain (UniProt P49427)
Sequence of UniProt P49427 (whole entry, looked up): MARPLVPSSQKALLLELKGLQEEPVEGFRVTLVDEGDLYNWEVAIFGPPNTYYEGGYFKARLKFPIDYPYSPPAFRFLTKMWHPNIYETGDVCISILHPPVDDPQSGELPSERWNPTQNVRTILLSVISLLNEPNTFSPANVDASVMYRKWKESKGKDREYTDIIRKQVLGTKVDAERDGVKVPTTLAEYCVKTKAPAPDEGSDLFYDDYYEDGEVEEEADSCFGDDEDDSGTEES
Method: yeast two-hybrid
Medium: yeast
Setting: mostly zero background
Relative to: not given
Direction: higher = stronger interaction
B1: RFWD3 RING domain (UniProt Q6PCD5); chain ASMDEEEGDTCTICLEQWTNAGDHRLSALRCGHLFGYRCISTWLKGQVRKCPQCNKKARHSDIVV
B2: MDM4 RING domain (UniProt O15151); chain MEDCQNLLKPCSLCEKRPRDGNIIHGRTGHLVTCFHCARRLKKAGASCPICKKEIQLVIKVF
B3: TRIM62 RING domain (UniProt Q9BVG3); chain MACSLKDELLCSICLSIYQDPVSLGCEHYFCRRCITEHWVRQEAQGARDCPECRRTFAEPALAP
B4: DZIP3 RING domain (UniProt Q86Y13); chain PDEEEEEEEPCVICHENLSPENLSVLPCAHKFHAQCIRPWLMQQGTCPTCRLHVLLPEEFP
B5: RNF121 RING domain (UniProt Q9H920); chain MPTKHLSDSVCAVCGQQIFVDVSEEGIIENTYRLSCNHVFHEFCIRGWCIVGKKQTCPYCKEKVDLKRMFS
B6: RNF19A RING domain (UniProt Q9NV58); chain ISKQIGDFIECPLCLLRHSKDRFPDIMTCHHRSCVDCLRQYLRIEISESRVNISCPECTERFNPHDIR
B7: DTX2 RING domain (UniProt Q86UW9); chain EELKVPPDEDCIICMEKLSTASGYSDVTDSKAIGSLAVGHLTKCSHAFHLLCLLAMYCNGNKDGSLQCPSCKTIYGEKTGTQ
B8: SH3RF1 RING domain (UniProt Q7Z6J0); chain DESALLDLLECPVCLERLDASAKVLPCQHTFCKRCLLGIVGSRNELRCPECRTLVGSGVEEL
B9: RBCK1 RING domain (UniProt Q9BYM8); chain SLVLNTEPAECPVCYSVLAPGEAVVLRECLHTFCRECLQGTIRNSQEAEVSCPFIDNTYSCSGKLLEREIK
B10: UBOX5 RING domain (UniProt O94941); chain EQPGSILGPECASCKRVFSPYFKKEPVYQLPCGHLLCRPCLGEKQRSLPMTCTACQRPVASQDVLR
Under “lacZ reporter activity”, `B1 (RFWD3 RING domain)` is recorded as 0.
Under “lacZ reporter activity”, `B2 (MDM4 RING domain)` is recorded as 0.
For `AMYLQENGIDCPKCKFSYALARGGCMHFHCTQCRHQFCSGCYNAFYAKNKC (RNF31 RING domain (UniProt Q96EP0))`, “lacZ reporter activity” read 0.
Under “lacZ reporter activity”, `FDGDVDPDLKCALCHKVLEDPLTTPCGHVFCAGCVLPWVVQEGSCPARCRGRLSAKELN (PDZRN3 RING domain (UniProt Q9UPQ7))` is recorded as 0.
For `B3 (TRIM62 RING domain)`, “lacZ reporter activity” read 0.
Under “lacZ reporter activity”, `GSRLQEINDVCAICYHEFTTSARITPCNHYFHALCLRKWLYIQDTCPMCHQKVYIEDDIK (RNF139 RING domain (UniProt Q8WU17))` is recorded as 0.
`B4 (DZIP3 RING domain)` — result for “lacZ reporter activity”: 0.
Under “lacZ reporter activity”, `B5 (RNF121 RING domain)` is recorded as 0.
Under “lacZ reporter activity”, `B6 (RNF19A RING domain)` is recorded as 0.
Under “lacZ reporter activity”, `B7 (DTX2 RING domain)` is recorded as 0.
`GSDDEEIPFKCFICRQSFQNPVVTKCRHYFCESCALQHFRTTPRCYVCDQQTNGVFNPA (RNF113A RING domain (UniProt O15541))` — result for “lacZ reporter activity”: 0.
Under “lacZ reporter activity”, `B8 (SH3RF1 RING domain)` is recorded as 0.
For `B9 (RBCK1 RING domain)`, “lacZ reporter activity” read 0.
Under “lacZ reporter activity”, `B10 (UBOX5 RING domain)` is recorded as 0.

Set 3
Target: RNA binding protein fox-1 homolog 2, RRM domain, GST-SBP tag (RBFOX2, Homo sapiens, UniProt O43251-10, residues 100-194)
Method: RNA Bind-n-Seq
Molecule type: RNA
Medium: in vitro
Concentration: 365 nM
Setting: natural RNA segment, single round, ends assumed
Relative to: no-protein control
Direction: higher = stronger binding
Residues (chain): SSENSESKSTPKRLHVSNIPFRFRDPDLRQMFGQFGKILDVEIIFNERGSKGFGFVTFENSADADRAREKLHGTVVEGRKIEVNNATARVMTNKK
For `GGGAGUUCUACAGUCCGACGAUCGAUGCCAAGACCUUAGCCCCAAGGGGAGAUUUCCAAACUCUUAAAAAUGAAGGCUCCCAUGAGUCUUCACUAGAAAGAUGUGGUCCCCAUCCCCACCCUGACUGAGACCUUGGAAUUCUCGGGUGCCAA`, “RBNS enrichment (R)” read 0.296.
Under “RBNS enrichment (R)”, `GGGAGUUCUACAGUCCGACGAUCUUUGGUUGGGGAGCCAGCUUGGGGUGGGGAGUUUCACCUGGGCCUCCGCUCUCUAACUACAUAAACAUUUAUCUGUAUCUCUCUGUCCCGGGCUGGGGGCAGGAGGAAUCUGGAAUUCUCGGGUGCCAA` is recorded as 0.653.
`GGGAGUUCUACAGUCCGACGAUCUUCCAAGAGAGGACAGCAAGUCCCCUGACACUGCAAAUUUCAUUUGAGCCUAGGGAGCUGGGAAAACAGUUGGGCCUAGUCUGUUUUUGAAUUGCAUUGCAUUGAGUUGUUGGAAUUCUCGGGUGCCAA` — result for “RBNS enrichment (R)”: 0.69.
For `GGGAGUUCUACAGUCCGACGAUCUCUCUUACUGCCAUAGGAAAUUAUUUUAGGGGUUGGAGGUGGGACAAGCAGGCUUGUUUCCACCAAUAGUGCCAAAAAGAUAUUGCCUAAUGUGCACCUGUGAGGUGUAAUGGAAUUCUCGGGUGCCAA`, “RBNS enrichment (R)” read 0.314.
Under “RBNS enrichment (R)”, `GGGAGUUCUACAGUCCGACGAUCUUAGGUGCGAGGCAUCACCUUCUCACAAGUGUUUAGUUUCUUUUAACCACAAGUAUCAUUCUUGGGUGAUAAUAUAGUUUCAUUCUACUUAGGGAUUGUUUAGAAAACAAUGGAAUUCUCGGGUGCCAA` is recorded as 0.326.
For `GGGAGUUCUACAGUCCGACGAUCAGGGUCUCCCUGCCCACUGGGCUGUUCCAGACCUGUGAUACUGUGUUUGUAUGUUGAUAUCCCAUGUGUACAAAUGUGUUUACCAUUGGGGCUGGGGGUGGGUGGCUGUCUGGAAUUCUCGGGUGCCAA`, “RBNS enrichment (R)” read 0.75.
For `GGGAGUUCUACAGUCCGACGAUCCCUGGCCCAUUCUGAGAAAUGGAGCUGUAGCUAUGGCCUAGCCAGCACCCCCAGUGCUCGCUCAUGGGAAAUAUCAGCCCUAGGCUGGUUGUUUUUACAAAUCUCUCUCAUGGAAUUCUCGGGUGCCAA`, “RBNS enrichment (R)” read 0.229.
`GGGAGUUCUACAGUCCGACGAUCACAGUUGCAUGUUCAACUUGUCAUAGCUGGAAUUACUGUAUAAAAAGAACUGAUUGUGACUUGUAGUUCUUCUCUAGAGGAUGCUGCUAGAACGUGGUUUUGCUUUGCAUUGGAAUUCUCGGGUGCCAA`: “RBNS enrichment (R)” 6.3.
For `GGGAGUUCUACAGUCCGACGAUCCAGAAGGCACGUGAAUGUGUUUGCUUUGGCUUGGAGCUUAUUAAGUUUUGACUACGGUUAAAAUAAGUCAAAUAGUAAGUGGUAAAACACAUUUUUGUUAGUAUUGGAACUGGAAUUCUCGGGUGCCAA`, “RBNS enrichment (R)” read 1.23.

Set 4
Target: Histone acetyltransferase KAT6A, winged helix 1, GST fusion (KAT6A, Homo sapiens, UniProt Q92794, residues 1-85)
Method: protein binding microarray
Molecule type: double-stranded DNA, one strand shown
Medium: in vitro
Concentration: not given
Setting: 8-mer, flanks averaged, mean of 2 arrays, mostly near background
Relative to: not given
Direction: higher = stronger binding
Residues (chain): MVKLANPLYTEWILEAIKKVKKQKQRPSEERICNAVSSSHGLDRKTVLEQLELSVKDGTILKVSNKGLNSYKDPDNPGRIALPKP
`GAGATCGC` gave an E-score of 0.0585.
With `AAAAACGG` the E-score was 0.0673.
For `AGATGGAC`, the E-score was -0.108.
The E-score of `AAGGCCAA` is reported as -0.128.
With `GCGTCAAC` the E-score was 0.256.
With `CCGTCAGC` the E-score was 0.303.
For `CCATGATC`, the E-score was -0.195.
`CCGTAAGG` has an E-score of 0.247.
With `GAGAAGGC` the E-score was -0.178.
With `CTAAGCAC` the E-score was 0.00732.
`GGGTATGA` has an E-score of -0.000575.
For `CCGCGAGG`, the E-score was 0.365.
`ATTCGATC` gave an E-score of -0.0246.
The E-score of `CTCTACCA` is reported as -0.103.
For `GGGTAGCA`, the E-score was 0.177.
`AATAAATT` gave an E-score of -0.231.
`GTGGCAAC` has an E-score of -0.045.
With `AAAATATA` the E-score was 0.0214.
`ACAGCTCG` gave an E-score of -0.0278.
The E-score of `ACATTCGG` is reported as 0.0139.
`TAACGTAA` has an E-score of -0.0373.
`ATTATCTG` has an E-score of -0.187.
`ACGCACGG` has an E-score of 0.377.
